Results collected from several papers.
Each numbered part is a random draw from the data of one study; scales do not carry over between parts. Changes are numbered by the printed parent chain.

Block 1
Target: ABI1, truncated, D143A, DHFR fusion (Arabidopsis thaliana)
Technique: DHFR PCA, deep sequencing
Matrix: yeast
Setting: methotrexate growth selection, single substitutions
With: (+)-ABA 0.0091 µM
Relative to: wild-type fitted maximum
Direction: higher = stronger binding
Starting sequence: PYL1, truncated, DHFR fusion (Arabidopsis thaliana); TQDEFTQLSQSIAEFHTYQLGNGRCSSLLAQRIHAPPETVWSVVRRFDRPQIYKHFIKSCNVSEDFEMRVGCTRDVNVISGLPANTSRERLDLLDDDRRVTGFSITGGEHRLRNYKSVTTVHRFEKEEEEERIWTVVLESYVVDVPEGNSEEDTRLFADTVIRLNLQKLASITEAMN
Variant | relative binding score
S42V | -2.77%
R69I | 18.3%
R90P | 0.382%
S11T | 29.4%
R74E | 1.07%
N177L | 3.75%
K126A | 65.7%
V62W | -2.38%

Block 2
Target: HLF, bZIP domain (human)
Technique: DHFR protein complementation
Matrix: yeast
Setting: single substitutions, most at no-binding floor
Relative to: wild-type JUN-FOS pair
Direction: higher = stronger binding
Starting sequence: JUN, bZIP domain (human); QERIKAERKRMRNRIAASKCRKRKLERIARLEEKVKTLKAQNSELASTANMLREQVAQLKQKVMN; partner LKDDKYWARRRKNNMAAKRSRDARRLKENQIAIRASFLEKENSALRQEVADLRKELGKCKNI
Variant | binding fitness
V35W | -1.47 natural log
Q41D | -1.17 natural log
Q55F | -1.36 natural log
T48H | -1.43 natural log
E32C | -1.42 natural log
I28Q | -1.43 natural log
L45G | -1.46 natural log
E32K | -1.34 natural log

Further values, each from its own experiment
P1: PafA, mature enzyme, eGFP fusion (Elizabethkingia meningoseptica, UniProt Q9KJX5); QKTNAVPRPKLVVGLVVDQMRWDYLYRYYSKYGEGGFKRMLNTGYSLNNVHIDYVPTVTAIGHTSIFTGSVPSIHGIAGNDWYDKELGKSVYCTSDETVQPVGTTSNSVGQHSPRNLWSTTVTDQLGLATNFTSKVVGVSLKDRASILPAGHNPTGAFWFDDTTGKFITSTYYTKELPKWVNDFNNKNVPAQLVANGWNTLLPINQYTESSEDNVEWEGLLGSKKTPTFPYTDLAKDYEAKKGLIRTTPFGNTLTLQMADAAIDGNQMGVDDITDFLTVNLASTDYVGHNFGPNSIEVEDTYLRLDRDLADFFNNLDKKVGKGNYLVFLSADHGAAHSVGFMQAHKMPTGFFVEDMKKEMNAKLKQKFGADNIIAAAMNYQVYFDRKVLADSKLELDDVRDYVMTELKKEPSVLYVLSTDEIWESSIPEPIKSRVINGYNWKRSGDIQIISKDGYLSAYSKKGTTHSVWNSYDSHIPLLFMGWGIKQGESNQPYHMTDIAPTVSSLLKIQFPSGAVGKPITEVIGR
Substance | target | test | test system | conditions | scale | endpoint | result
PhoQ, residues 284 288 289 292 302 303 AMDMFI | PhoP, residues 12 14 15 18 19 TTLRV (Escherichia coli, UniProt P23836) | Sort-seq, refers to: YFP reporter | E. coli | PhoQ-PhoP variant library, with: 10 µM Mg2+ | relative to: high Mg2+ state, higher = stronger signaling | fold induction | 0.952
P1 T171G | tungstate, free oxyanion | microfluidic competitive inhibition | in vitro, cell-free expressed | not given, derived from inhibition constants, unchanged parent 2230 nM | lower = stronger binding | oxyanion analog dissociation constant | 1.88 µM
